Results collected from several papers.
Parts stem from different laboratories: compare values within a part only.
UniProt Q9Y6M4, sequence (whole entry, looked up): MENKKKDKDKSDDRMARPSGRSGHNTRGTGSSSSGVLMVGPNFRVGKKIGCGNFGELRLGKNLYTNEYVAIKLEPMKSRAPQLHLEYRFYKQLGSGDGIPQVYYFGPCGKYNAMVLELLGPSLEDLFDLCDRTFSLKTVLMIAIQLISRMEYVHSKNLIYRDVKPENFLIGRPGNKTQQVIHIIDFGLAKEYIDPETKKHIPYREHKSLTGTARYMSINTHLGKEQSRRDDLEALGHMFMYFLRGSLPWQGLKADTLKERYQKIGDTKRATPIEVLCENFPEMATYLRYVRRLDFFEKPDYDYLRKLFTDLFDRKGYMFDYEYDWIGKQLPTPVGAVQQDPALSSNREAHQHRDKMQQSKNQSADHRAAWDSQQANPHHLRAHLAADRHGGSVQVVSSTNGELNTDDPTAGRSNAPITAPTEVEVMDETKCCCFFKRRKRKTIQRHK
UniProt O00222, sequence (whole entry, looked up): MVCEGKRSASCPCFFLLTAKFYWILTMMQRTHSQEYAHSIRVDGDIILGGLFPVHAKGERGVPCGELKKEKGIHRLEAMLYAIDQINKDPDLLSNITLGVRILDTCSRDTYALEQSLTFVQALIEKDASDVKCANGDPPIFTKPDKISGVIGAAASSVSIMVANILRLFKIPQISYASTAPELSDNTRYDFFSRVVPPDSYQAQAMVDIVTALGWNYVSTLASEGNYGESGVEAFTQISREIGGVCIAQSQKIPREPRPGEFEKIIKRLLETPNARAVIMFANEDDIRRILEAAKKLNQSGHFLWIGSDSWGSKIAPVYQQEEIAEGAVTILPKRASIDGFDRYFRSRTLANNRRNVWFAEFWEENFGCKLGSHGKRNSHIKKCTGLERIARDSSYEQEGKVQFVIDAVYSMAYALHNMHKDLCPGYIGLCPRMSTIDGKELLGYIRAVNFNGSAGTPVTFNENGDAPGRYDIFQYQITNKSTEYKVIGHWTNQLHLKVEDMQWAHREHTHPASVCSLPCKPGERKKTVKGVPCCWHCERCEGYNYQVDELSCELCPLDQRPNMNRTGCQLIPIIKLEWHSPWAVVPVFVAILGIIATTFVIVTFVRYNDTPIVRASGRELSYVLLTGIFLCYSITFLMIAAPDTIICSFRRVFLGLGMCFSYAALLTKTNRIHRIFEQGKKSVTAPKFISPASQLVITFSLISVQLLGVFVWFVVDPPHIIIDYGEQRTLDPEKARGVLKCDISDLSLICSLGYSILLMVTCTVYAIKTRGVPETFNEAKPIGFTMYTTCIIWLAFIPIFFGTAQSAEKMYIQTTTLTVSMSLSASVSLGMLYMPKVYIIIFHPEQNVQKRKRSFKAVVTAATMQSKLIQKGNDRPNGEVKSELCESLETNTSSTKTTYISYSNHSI
UniProt Q16512, sequence (whole entry, looked up): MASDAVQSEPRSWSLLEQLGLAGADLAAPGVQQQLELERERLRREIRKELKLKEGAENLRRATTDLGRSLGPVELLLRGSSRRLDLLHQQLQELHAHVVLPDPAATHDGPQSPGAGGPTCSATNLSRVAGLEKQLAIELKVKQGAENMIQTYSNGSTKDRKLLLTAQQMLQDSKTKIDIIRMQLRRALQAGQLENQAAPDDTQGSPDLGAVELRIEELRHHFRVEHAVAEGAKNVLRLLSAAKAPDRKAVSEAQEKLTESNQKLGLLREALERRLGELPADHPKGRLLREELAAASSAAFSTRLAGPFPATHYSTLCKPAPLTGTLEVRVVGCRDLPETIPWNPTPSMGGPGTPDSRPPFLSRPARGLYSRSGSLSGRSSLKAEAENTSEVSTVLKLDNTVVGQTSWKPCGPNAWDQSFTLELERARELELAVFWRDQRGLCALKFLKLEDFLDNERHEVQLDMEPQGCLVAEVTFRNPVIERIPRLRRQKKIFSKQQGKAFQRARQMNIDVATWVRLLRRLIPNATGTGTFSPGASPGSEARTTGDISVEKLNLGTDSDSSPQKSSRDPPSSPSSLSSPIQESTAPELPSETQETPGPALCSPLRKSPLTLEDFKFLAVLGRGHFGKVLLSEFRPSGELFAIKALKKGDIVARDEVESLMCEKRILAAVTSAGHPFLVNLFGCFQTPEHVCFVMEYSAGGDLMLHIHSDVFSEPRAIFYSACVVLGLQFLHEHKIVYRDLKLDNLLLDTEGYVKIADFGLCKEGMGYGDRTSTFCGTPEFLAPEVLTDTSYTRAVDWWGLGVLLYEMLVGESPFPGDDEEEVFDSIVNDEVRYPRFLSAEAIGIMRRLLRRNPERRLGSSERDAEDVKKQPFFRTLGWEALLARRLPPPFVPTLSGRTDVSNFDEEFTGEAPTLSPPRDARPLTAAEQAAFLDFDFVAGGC
UniProt P78368, sequence (whole entry, looked up): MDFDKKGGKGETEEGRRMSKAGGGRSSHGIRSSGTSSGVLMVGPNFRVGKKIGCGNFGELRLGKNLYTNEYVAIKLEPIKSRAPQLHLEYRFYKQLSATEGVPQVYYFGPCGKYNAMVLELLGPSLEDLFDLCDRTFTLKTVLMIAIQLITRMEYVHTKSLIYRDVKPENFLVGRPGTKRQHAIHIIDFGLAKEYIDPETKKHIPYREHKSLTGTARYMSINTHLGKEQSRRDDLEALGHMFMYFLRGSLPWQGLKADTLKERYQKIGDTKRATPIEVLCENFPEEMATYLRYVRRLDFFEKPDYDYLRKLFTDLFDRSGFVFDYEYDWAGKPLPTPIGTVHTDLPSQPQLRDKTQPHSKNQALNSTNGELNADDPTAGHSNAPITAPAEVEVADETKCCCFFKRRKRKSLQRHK
UniProt O60755, sequence (whole entry, looked up): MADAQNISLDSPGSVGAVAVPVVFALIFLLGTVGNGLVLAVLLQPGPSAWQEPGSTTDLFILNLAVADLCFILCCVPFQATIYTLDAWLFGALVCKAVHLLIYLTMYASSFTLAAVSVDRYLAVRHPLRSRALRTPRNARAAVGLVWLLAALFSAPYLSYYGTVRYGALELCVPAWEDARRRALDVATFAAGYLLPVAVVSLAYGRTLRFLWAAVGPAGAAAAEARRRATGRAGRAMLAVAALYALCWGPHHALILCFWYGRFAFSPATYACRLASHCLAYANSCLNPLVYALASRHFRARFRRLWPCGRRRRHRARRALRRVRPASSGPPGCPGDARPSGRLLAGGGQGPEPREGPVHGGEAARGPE
UniProt Q9NPC1, sequence (whole entry, looked up): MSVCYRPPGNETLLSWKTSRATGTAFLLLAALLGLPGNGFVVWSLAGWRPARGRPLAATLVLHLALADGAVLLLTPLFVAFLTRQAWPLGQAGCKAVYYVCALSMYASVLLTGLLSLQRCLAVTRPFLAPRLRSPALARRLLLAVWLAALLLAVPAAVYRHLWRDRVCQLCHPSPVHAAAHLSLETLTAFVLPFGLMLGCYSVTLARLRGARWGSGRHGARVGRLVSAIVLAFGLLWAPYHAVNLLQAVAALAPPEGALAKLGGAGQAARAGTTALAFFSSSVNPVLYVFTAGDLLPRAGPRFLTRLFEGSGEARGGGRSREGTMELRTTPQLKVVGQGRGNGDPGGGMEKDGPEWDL
UniProt P49841, sequence (whole entry, looked up): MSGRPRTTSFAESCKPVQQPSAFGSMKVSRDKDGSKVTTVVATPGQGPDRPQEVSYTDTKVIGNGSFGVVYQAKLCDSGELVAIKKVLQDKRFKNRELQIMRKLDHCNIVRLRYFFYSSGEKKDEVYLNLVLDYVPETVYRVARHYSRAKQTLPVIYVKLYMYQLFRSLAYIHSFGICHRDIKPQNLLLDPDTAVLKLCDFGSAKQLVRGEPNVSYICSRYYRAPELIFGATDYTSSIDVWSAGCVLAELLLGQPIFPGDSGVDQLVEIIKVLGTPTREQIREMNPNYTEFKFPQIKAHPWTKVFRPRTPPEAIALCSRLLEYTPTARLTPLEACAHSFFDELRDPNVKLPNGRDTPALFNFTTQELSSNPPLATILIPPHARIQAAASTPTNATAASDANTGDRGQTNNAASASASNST

Set 1
Compound: N=C(N)NC(=O)c1cnn(-c2cccc3ncccc23)c1C1CC1
Read-out: β-arrestin recruitment
Mode: agonist
Method: PRESTO-Tango
Concentration: 10 µM
Relative to: untreated
Quantity: fold over basal
target = GABBR1 (Homo sapiens, UniProt Q9UBS5); value = 0.96 fold
target = ADRA2B (Homo sapiens, UniProt P18089); value = 0.72
target = UTS2R (Homo sapiens, UniProt Q9UKP6); value = 0.74 fold
target = GRM8 (Homo sapiens, UniProt O00222); value = 1.1 fold
target = DRD4 (Homo sapiens, UniProt P21917); value = 1.28
target = Galanin receptor type 3 (Homo sapiens, UniProt O60755); value = 1 fold
target = Proteinase-activated receptor 3 (F2RL2, Homo sapiens, UniProt O00254); value = 1.25
target = Leukotriene B4 receptor 2, isoform b (LTB4R2, Homo sapiens, UniProt Q9NPC1); value = 1
target = CHRM5 (Homo sapiens, UniProt P08912); value = 0.7
target = AVPR1A (Homo sapiens, UniProt P37288); value = 1.23

Set 2
SMILES: C=CCc1ccc(O)c(-c2cc(CC=C)ccc2O)c1
Quantity: normalized current
ANO1 del476-501/K629A: Anoctamin-1 (ANO1, Homo sapiens, UniProt Q5XXA6, del476-501/K629A)
UniProt Q5XXA6, sequence (whole entry, unmodified, looked up): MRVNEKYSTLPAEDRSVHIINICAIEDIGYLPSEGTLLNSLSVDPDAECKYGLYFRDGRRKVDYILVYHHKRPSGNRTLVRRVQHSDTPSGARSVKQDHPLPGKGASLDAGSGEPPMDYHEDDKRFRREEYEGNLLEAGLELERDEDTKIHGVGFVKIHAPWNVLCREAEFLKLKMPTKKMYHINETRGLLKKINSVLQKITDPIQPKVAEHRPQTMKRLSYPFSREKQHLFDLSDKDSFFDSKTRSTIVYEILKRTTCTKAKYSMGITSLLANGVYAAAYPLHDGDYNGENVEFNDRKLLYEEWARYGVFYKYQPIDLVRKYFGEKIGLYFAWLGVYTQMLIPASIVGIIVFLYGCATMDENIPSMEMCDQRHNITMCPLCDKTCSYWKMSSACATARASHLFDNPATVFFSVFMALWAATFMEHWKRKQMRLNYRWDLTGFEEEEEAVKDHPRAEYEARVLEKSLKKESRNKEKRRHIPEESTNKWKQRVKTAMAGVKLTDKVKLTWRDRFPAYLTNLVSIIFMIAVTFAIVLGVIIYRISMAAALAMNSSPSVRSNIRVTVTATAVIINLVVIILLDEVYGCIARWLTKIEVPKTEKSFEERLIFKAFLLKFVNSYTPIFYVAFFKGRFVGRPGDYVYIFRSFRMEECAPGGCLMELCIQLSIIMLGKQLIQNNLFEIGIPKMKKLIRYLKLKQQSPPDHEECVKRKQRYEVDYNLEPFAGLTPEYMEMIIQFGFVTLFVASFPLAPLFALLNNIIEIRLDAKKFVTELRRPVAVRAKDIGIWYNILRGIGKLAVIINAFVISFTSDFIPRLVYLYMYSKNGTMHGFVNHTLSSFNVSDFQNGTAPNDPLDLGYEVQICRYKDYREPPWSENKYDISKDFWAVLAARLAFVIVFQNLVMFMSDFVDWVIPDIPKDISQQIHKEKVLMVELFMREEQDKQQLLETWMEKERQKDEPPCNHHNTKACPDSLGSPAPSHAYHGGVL
target = ANO1 del476-501/K629A; test = chloride current, inhibitor, inside-out patch clamp; setting = 30 µM, K603A mutant at -80 mV; value = -0.472
target = Anoctamin-1 (ANO1, Homo sapiens, UniProt Q5XXA6, del476-501/E649A/R541A); test = chloride current, inhibitor, inside-out patch clamp; setting = 30 µM, R515A/E623A mutant at -80 mV; value = -0.336
target = Anoctamin-1 (ANO1, Homo sapiens, UniProt Q5XXA6, del476-501/E659A); test = chloride current, inside-out patch clamp; setting = 30 µM, membrane voltage 80 mV; value = 0.566
target = Anoctamin-1 (ANO1, Homo sapiens, UniProt Q5XXA6, del476-501/E659A/K629A); test = chloride current, inside-out patch clamp; setting = 30 µM, membrane voltage 0 mV; value = 0.0019
target = Anoctamin-1 (ANO1, Homo sapiens, UniProt Q5XXA6); test = chloride current, inside-out patch clamp; setting = 30 µM, membrane voltage 20 mV; value = 0.195
target = Anoctamin-1 (ANO1, Homo sapiens, UniProt Q5XXA6, del476-501/R541A); test = chloride current, inhibitor, whole-cell voltage clamp; setting = 10 µM, R515A mutant; value = 0.994
target = Anoctamin-1 (ANO1, Homo sapiens, UniProt Q5XXA6, del476-501/E649A); test = ion current, inside-out patch clamp; setting = 30 µM, E623A mutant at 60 mV; value = 0.416
target = ANO1 del476-501/K629A; test = chloride current, inside-out patch clamp; setting = 30 µM, membrane voltage -40 mV; value = -0.241

Set 3
Compound: COc1cc(-c2cn(C3CCc4ccccc4N(CC(F)(F)F)C3=O)nn2)ccc1-n1ccc(C)n1 (stereo not drawn)
Read-out: cell-free assay
Method: competition with immobilised ligand
Concentration: 1 µM
Quantity: remaining binding
target = PAK2 (Homo sapiens, UniProt Q13177); value = 100%
target = DYRK1A (Homo sapiens, UniProt Q13627); value = 83%
target = SGK3 (Homo sapiens, UniProt Q96BR1); value = 84%
target = YES1 (Homo sapiens, UniProt P07947); value = 100%
target = PKN1 (Homo sapiens, UniProt Q16512); value = 100%
target = PIKFYVE (Homo sapiens, UniProt Q9Y2I7); value = 100%
target = RAF1 (Homo sapiens, UniProt P04049); value = 98%
target = EGFR (Homo sapiens, UniProt P00533, L861Q); value = 100%
target = NEK11 (Homo sapiens, UniProt Q8NG66); value = 99%

Set 4
Structure (SMILES): c1ccc(-c2cnc(Nc3ccc(OCCN4CCCC4)cc3)s2)cc1
Read-out: enzyme activity
Mode: inhibitor
Concentration: 0.5 µM
Relative to: control
Quantity: remaining activity
target = TAOK2 (Homo sapiens, UniProt Q9UL54); value = 70.7%
target = GRK7 (Homo sapiens, UniProt Q8WTQ7); value = 90.2%
target = MAP3K5 (Homo sapiens, UniProt Q99683); value = 91.1%
target = NEK6 (Homo sapiens, UniProt Q9HC98); value = 102%
target = EPHA3 (Homo sapiens, UniProt P29320); value = 98.7%
target = MAP2K2 (Homo sapiens, UniProt P36507); value = 90.2%
target = CSNK1G2 (Homo sapiens, UniProt P78368); value = 100%
target = ULK2 (Homo sapiens, UniProt Q8IYT8); value = 78.3%
target = RPS6KA2 (Homo sapiens, UniProt Q15349); value = 85%
target = FRK (Homo sapiens, UniProt P42685); value = 83%
target = MST1R (Homo sapiens, UniProt Q04912); value = 107%
target = TBK1 (Homo sapiens, UniProt Q9UHD2); value = 87.1%
target = JAK3 (Homo sapiens, UniProt P52333); value = 108%
target = FGFR3 (Homo sapiens, UniProt P22607); value = 98.2%
target = CSNK1G3 (Homo sapiens, UniProt Q9Y6M4); value = 91.8%
target = MAP3K14 (Homo sapiens, UniProt Q99558); value = 81.9%
target = LCK (Homo sapiens, UniProt P06239); value = 48.6%
target = FGFR1 (Homo sapiens, UniProt P11362); value = 75.4%
target = MAPK3 (Homo sapiens, UniProt P27361); value = 99.8%
target = GSK3B (Homo sapiens, UniProt P49841); value = 100%
target = ACVR1B (Homo sapiens, UniProt P36896); value = 101%
target = TEK (Homo sapiens, UniProt Q02763); value = 102%
target = NEK1 (Homo sapiens, UniProt Q96PY6); value = 94.2%
target = MERTK (Homo sapiens, UniProt Q12866); value = 87.8%

Some of these lines once more (set 4):
target = MAP3K14 (Homo sapiens, UniProt Q99558); value = 81.9%
target = LCK (Homo sapiens, UniProt P06239); value = 48.6%
target = FGFR1 (Homo sapiens, UniProt P11362); value = 75.4%
target = MAPK3 (Homo sapiens, UniProt P27361); value = 99.8%
target = GSK3B (Homo sapiens, UniProt P49841); value = 100%
target = ACVR1B (Homo sapiens, UniProt P36896); value = 101%
target = TEK (Homo sapiens, UniProt Q02763); value = 102%
target = NEK1 (Homo sapiens, UniProt Q96PY6); value = 94.2%
